Measured values gathered from unrelated publications.
Protocols differ between the studies behind these lines. ± gives the spread as reported.
F fusion protein: Fusion glycoprotein F0, fusion protein (F, Parainfluenza virus 5, UniProt P04849)
Sequence of UniProt P04849 (whole entry, looked up): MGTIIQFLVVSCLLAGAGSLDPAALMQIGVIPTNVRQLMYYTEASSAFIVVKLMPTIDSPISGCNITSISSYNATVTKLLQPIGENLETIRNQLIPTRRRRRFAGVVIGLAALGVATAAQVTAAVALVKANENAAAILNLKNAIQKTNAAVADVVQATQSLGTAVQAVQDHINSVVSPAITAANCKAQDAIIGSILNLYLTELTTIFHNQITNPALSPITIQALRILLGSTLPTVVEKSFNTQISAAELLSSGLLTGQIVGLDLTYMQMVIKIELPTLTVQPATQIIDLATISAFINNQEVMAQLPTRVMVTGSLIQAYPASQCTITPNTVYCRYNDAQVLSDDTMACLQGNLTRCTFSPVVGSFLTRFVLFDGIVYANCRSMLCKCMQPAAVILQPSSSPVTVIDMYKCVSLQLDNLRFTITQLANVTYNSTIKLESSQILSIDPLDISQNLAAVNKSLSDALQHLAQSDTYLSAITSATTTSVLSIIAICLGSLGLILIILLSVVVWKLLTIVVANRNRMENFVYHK
gag-pol integrase: Gag-Pol polyprotein, integrase (gag-pol, Human immunodeficiency virus type 1 group M subtype B, UniProt P04585)
Sequence of UniProt P16390 (whole entry, looked up): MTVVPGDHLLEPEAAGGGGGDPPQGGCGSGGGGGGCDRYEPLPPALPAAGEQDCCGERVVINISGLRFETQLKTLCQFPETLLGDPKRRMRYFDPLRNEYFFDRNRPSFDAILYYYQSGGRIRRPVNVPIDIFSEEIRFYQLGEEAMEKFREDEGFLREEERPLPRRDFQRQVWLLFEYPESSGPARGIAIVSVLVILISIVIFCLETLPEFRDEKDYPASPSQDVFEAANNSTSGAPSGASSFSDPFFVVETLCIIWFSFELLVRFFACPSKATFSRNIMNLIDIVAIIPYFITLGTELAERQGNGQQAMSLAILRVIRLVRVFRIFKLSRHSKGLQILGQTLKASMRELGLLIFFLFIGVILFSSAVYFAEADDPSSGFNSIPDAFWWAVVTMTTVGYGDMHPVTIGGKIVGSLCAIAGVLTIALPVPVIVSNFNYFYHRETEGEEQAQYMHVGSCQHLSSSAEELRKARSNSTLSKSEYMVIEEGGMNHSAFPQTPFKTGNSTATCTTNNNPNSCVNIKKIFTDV
Sequence of UniProt P04618 (whole entry, looked up): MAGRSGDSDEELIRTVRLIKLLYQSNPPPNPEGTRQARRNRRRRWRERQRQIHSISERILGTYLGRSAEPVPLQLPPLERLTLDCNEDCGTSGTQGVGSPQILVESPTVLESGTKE
Sequence of UniProt P22001 (whole entry, looked up): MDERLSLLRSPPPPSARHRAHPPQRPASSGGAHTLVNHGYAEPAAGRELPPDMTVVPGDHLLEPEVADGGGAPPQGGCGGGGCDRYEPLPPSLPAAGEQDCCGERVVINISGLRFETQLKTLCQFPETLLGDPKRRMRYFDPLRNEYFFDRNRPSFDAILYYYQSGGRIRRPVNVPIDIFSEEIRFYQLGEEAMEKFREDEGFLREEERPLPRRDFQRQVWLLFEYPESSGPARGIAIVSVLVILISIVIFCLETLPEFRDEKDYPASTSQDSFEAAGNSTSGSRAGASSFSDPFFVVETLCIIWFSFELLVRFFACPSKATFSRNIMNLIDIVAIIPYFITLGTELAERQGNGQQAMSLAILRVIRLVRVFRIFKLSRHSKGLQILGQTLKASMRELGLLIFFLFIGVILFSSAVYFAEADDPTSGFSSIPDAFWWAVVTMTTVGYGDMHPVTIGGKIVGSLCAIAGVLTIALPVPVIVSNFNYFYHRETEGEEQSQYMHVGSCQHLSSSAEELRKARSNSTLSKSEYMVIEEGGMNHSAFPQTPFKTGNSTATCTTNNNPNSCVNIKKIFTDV
Sequence of UniProt P32300 (whole entry, looked up): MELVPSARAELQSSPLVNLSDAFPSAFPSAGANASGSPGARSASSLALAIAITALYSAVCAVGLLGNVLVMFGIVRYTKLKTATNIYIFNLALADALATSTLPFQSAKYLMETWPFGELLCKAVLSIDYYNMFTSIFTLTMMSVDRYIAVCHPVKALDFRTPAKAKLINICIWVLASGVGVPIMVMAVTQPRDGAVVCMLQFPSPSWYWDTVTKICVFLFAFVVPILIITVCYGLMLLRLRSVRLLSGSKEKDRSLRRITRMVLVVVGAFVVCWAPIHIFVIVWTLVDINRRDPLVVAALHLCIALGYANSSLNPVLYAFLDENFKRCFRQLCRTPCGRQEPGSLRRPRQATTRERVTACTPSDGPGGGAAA

| Structure (SMILES) | target | assay | test system | setting | IC50 [nM] |
| --- | --- | --- | --- | --- | --- |
| O=C1c2ccc(O)c(O)c2C(=O)N1Cc1cccc(Cl)c1F | Gag-Pol polyprotein, integrase (gag-pol, Human immunodeficiency virus 1, UniProt P12497, Y1290R) | enzyme activity, inhibitor |  |  | 1600 ± 100 |
| CC[C@H](C)[C@H](NC(=O)[C@H](C)NC(=O)[C@H](CO)NC(=O)[C@H](CC(C)C)NC(=O)[C@H](Cc1ccc(O)cc1)NC(=O)[C@@H](NC(=O)[C@H](CC(=O)O)NC(=O)[C@H](CO)NC(=O)[C@H](CCC(N)=O)NC(=O)[C@H](C)NC(=O)[C@H](CC(C)C)NC(=O)[C@H](Cc1c[nH]cn1)NC(=O)[C@H](CCC(N)=O)NC(=O)[C@H](CC(C)C)NC(=O)[C@H](C)NC(=O)[C@H](CC(=O)O)NC(=O)[C@H](CO)NC(=O)[C@H](CC(C)C)NC(=O)[C@H](CO)NC(=O)[C@H](CCCCN)NC(=O)[C@H](CC(N)=O)NC(=O)[C@@H](NC(=O)[C@H](C)NC(=O)[C@H](C)NC(=O)[C@H](CC(C)C)NC(=O)[C@H](CC(N)=O)NC(=O)[C@H](CCC(N)=O)NC(=O)[C@H](CO)NC(=O)[C@@H](NC(=O)[C@H](CC(=O)O)NC(=O)CNC(=O)[C@@H]1CCCN1C(=O)[C@H](CC(=O)O)NC(=O)[C@@H](NC(=O)[C@H](CO)NC(=O)[C@H](CC(C)C)NC(=O)[C@@H](NC(=O)[C@H](CCC(N)=O)NC(=O)[C@H](CO)NC(=O)[C@H](CO)NC(=O)[C@H](CCC(=O)O)NC(=O)[C@H](CC(C)C)NC(=O)[C@@H](N)CCCCN)[C@@H](C)CC)[C@@H](C)CC)[C@@H](C)CC)C(C)C)[C@@H](C)O)C(=O)O | F fusion protein | cell-cell fusion, inhibitor, luciferase reporter | Vero plus BSR-T7 cells | 6 h, 37 °C, with: SV5 F and HN | 150 ± 19 |
| CC(C)C[C@H](NC(=O)[C@H](CCCCN)NC(=O)[C@H](CC(C)C)NC(=O)[C@]1(C)CCCC=CCCC[C@](C)(N)C(=O)N[C@@H](C)C(=O)N[C@@H](Cc2ccc(O)cc2)C(=O)N[C@@H](Cc2ccccc2)C(=O)N1)C(=O)N[C@@H](C)C(=O)NCC(=O)N[C@@H](CCCNC(=N)N)C(=O)N[C@@H](Cc1c[nH]c2ccccc12)C(N)=O | gag-pol integrase | integrase 3'-processing, inhibitor |  |  | 53000 ± 15000 |
| NC(=O)[C@H](CO)NC(=O)[C@@H]1CCCN1C(=O)[C@H](Cc1ccc(O)cc1)NC(=O)CNC(=O)[C@H](Cc1ccccc1)NC(=O)[C@@H](CCCCN=C=S)NC(=O)[C@@H](N)Cc1ccc(O)cc1 | Oprd1 (Mus musculus, UniProt P32300) | radioligand binding | CHO cells | with: 0.15 nM [3H]DPDPE | 97.1 ± 4.9 |
| C[C@H](NC(=O)[C@H](C)NC(=O)[C@@H]1CCCN1C(=O)[C@@H](N)Cc1ccc(O)cc1)C(=O)N[C@@H](CO)C(=O)N[C@@H](Cc1ccc(O)cc1)C(=O)N[C@@H](CCCNC(=N)N)C(=O)O | Protein Rev (Human immunodeficiency virus type 1 group M subtype B, UniProt P04618) | Rev-RRE binding, inhibitor, gel shift | HIV |  | 62 |
| CC[C@H](C)[C@H](NC(=O)[C@H](C)NC(=O)[C@H](CO)NC(=O)[C@H](CC(C)C)NC(=O)[C@H](Cc1ccc(O)cc1)NC(=O)[C@@H](NC(=O)[C@H](CC(=O)O)NC(=O)[C@H](CO)NC(=O)[C@H](CCC(N)=O)NC(=O)[C@H](C)NC(=O)[C@H](CC(C)C)NC(=O)[C@H](Cc1c[nH]cn1)NC(=O)[C@H](CCC(N)=O)NC(=O)[C@H](CC(C)C)NC(=O)[C@H](C)NC(=O)[C@H](CC(=O)O)NC(=O)[C@H](CO)NC(=O)[C@H](CC(C)C)NC(=O)[C@H](CO)NC(=O)[C@H](CCCCN)NC(=O)[C@H](CC(N)=O)NC(=O)[C@@H](NC(=O)[C@H](C)NC(=O)[C@H](C)NC(=O)[C@H](CC(C)C)NC(=O)[C@H](CC(N)=O)NC(=O)[C@H](CCC(N)=O)NC(=O)[C@H](CO)NC(=O)[C@@H](NC(=O)[C@H](CC(=O)O)NC(=O)[C@H](Cc1ccccc1)NC(=O)[C@@H]1CCCN1C(=O)[C@H](CC(=O)O)NC(=O)[C@@H](NC(=O)[C@H](CO)NC(=O)[C@H](CC(C)C)NC(=O)[C@@H](NC(=O)[C@H](CCC(N)=O)NC(=O)[C@H](CO)NC(=O)[C@H](CO)NC(=O)[C@H](CCC(=O)O)NC(=O)[C@H](CC(C)C)NC(=O)[C@@H](N)CCCCN)[C@@H](C)CC)[C@@H](C)CC)[C@@H](C)CC)C(C)C)[C@@H](C)O)C(=O)O | F fusion protein | cell-cell fusion, inhibitor, luciferase reporter | Vero plus BSR-T7 cells | 6 h, 37 °C, with: SV5 F and HN | 100 ± 12 |
| C=CCCC[C@H](NC(=O)[C@H](CC(C)C)NC(=O)[C@H](CCC(N)=O)NC(=O)[C@H](CCC(N)=O)NC(=O)[C@H](CCCC=C)NC(=O)[C@@H](NC(=O)[C@H](CCCNC(=N)N)NC(=O)[C@@H](NC(=O)[C@@H](NC(=O)[C@H](C)NC(=O)[C@H](CCC(=O)O)NC(C)=O)[C@@H](C)CC)[C@@H](C)CC)[C@@H](C)CC)C(=O)N[C@@H](Cc1ccccc1)C(=O)N[C@H](C(=O)N[C@@H](Cc1c[nH]cn1)C(=O)N[C@@H](Cc1ccccc1)C(=O)N[C@@H](CCCNC(=N)N)C(=O)N[C@H](C(=O)NCC(N)=O)[C@@H](C)CC)[C@@H](C)CC | gag-pol integrase | strand transfer, inhibitor | HIV-1 |  | 900 ± 60 |
| CC[C@H](C)[C@@H]1NC(=O)[C@@H](NC(=O)[C@H](CO)NC(=O)[C@@H](N)CCCNC(=N)N)CSSC[C@@H](C(=O)O)NC(=O)[C@H]([C@@H](C)O)NC(=O)CNC(=O)[C@@H]2CSSC[C@@H]3NC(=O)[C@H](CCC(N)=O)NC(=O)[C@H](Cc4ccccc4)NC(=O)[C@H](C)NC(=O)[C@H]([C@@H](C)O)NC(=O)[C@H](CSSC[C@H](NC(=O)[C@H](Cc4ccccc4)NC(=O)[C@H](CO)NC(=O)[C@H](CC(C)C)NC(=O)[C@H](CCCNC(=N)N)NC(=O)[C@H](Cc4ccc(O)cc4)NC(=O)[C@H](CCCCN)NC(=O)[C@H](CCSC)NC(=O)[C@H](CO)NC(=O)[C@H](Cc4cnc[nH]4)NC(=O)[C@H](CCCCN)NC3=O)C(=O)N[C@@H](CCCNC(=N)N)C(=O)N[C@@H](CCCCN)C(=O)N[C@@H]([C@@H](C)O)C(=O)N2)NC(=O)[C@H](CCCNC(=N)N)NC(=O)[C@H](CO)NC(=O)[C@H](CCCCN)NC(=O)[C@@H]2CCCN2C(=O)[C@H]([C@@H](C)CC)NC(=O)[C@H]([C@@H](C)O)NC(=O)[C@H](CC(=O)O)NC1=O | KCNA3 (Homo sapiens, UniProt P22001) | ion current, inhibitor, two-electrode voltage clamp |  | oocytes | 0.0574 |
| CC[C@H](C)[C@H](NC(=O)[C@H](C)NC(=O)[C@H](CCC(=O)O)NC(C)=O)C(=O)N[C@H](C(=O)N[C@H]1CCCC=CCCC[C@@H](C(=O)N[C@@H](CC(C)C)C(=O)N[C@@H](CC(C)C)C(=O)N[C@@H](Cc2ccccc2)C(=O)N[C@H](C(=O)N[C@@H](Cc2c[nH]cn2)C(=O)N[C@@H](Cc2ccccc2)C(=O)N[C@@H](CCCNC(=N)N)C(=O)N[C@H](C(=O)NCC(N)=O)[C@@H](C)CC)[C@@H](C)CC)NC(=O)[C@H](CCC(N)=O)NC(=O)[C@H](CC(C)C)NC(=O)[C@H]([C@@H](C)CC)NC1=O)[C@@H](C)CC | gag-pol integrase | 3′-end processing, inhibitor | HIV-1 |  | > 111000 |
| CC[C@H](C)[C@@H]1NC(=O)[C@@H](NC(=O)[C@H](CO)NC(=O)[C@@H](N)CCCNC(=N)N)CSSC[C@@H](C(=O)N[C@@H](CCCCN)C(N)=O)NC(=O)[C@H]([C@@H](C)O)NC(=O)CNC(=O)[C@@H]2CSSC[C@@H]3NC(=O)[C@H](CCC(N)=O)NC(=O)[C@H](Cc4ccccc4)NC(=O)[C@H](C)NC(=O)[C@H]([C@@H](C)O)NC(=O)[C@H](CSSC[C@H](NC(=O)[C@H](Cc4ccccc4)NC(=O)[C@H](CO)NC(=O)[C@H](CC(C)C)NC(=O)[C@H](CCCNC(=N)N)NC(=O)[C@H](Cc4ccc(O)cc4)NC(=O)[C@H](CCCCN)NC(=O)[C@H](CCSC)NC(=O)[C@H](CO)NC(=O)[C@H](Cc4c[nH]cn4)NC(=O)[C@H](CCCCN)NC3=O)C(=O)N[C@@H](CCCNC(=N)N)C(=O)N[C@@H](CCCCN)C(=O)N[C@@H]([C@@H](C)O)C(=O)N2)NC(=O)[C@H](CCCNC(=N)N)NC(=O)[C@H](CO)NC(=O)[C@H](CCCCN)NC(=O)[C@@H]2CCCN2C(=O)[C@H]([C@@H](C)CC)NC(=O)[C@H]([C@@H](C)O)NC(=O)[C@H](CC(=O)O)NC1=O | Kcna3 (Mus musculus, UniProt P16390) | ion current, inhibitor, patch clamp |  |  | 0.026 |
